Results of several laboratories.
Each numbered part is a random draw from the data of one study; scales do not carry over between parts.

Study 1
Target: RNA binding protein fox-1 homolog 2, RRM domain, GST-SBP tag (RBFOX2, Homo sapiens, UniProt O43251-10, residues 100-194)
Technique: RNA Bind-n-Seq
Form: RNA
Matrix: in vitro
Tested at: 365 nM
Setting: natural RNA segment, single round, ends assumed
Relative to: no-protein control
Reading: higher = stronger binding
Constant ends, left off below: GGGAGUUCUACAGUCCGACGAUC … UGGAAUUCUCGGGUGCCAA
Construct (chain): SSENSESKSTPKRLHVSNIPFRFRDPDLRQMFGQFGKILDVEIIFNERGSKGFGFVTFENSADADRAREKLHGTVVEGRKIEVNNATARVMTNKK
Strand	RBNS enrichment (R)
CCAUUCAGGUUUGCUGUCACAUAUGCAUCAUCUGAAAUCAUUUGAAAUUUUUGUACAAUAAAAUAUCCUGGAUUUGAUCCUGAAGGAAACUAGUAAGAUCAGAUUUUUGG	0.517
UUAGUUUUGAUGCUUUUCAAAUUACAUUAUUUUCCUCCCCUAUGAACAUUGUGGGGAGGGACUCUAAAUAAACCAGUUUAGGCAUUUGCUAGCUUUAGGUGCUUUUAUUG	0.608
UGGUCACCCUGGCAAACUGCACCUGACAUUGAGGUCCCUUUUCACCAAAGAUGCACAAGGUGUCCAUGCCGAGCCGACAUCAUUCAGGCCAAGGGCAGAGGAUGUAAUGA	0.427
UAGUCUGAUUUUUUUCCUAAUAUUCUAGCAGGCUGGGGUGGUAUAAAGCCCUCCUGACAAGCCUUUUGCCUACAGGUUUACCUGAAAAUGAGCUACAUAUGGUCGUCAUU	0.256
AGCAUGCUUGGGCUGACCCAGCAUCUCCCAGCAAGACCUCAUCUGUGGAGCUGCCACAGAGAAGUUUGUAGCCAGGUACUGCAUUCUCUCCCAUCCUGGGGCAGCACUCC	7.96
GCAGCUUGGAGCCCAGGUAGGGGGCAGAGCUGUCCUCAGCUGCACUGCGGCCUGGUGGCAGUGUGGGGAGUCACACUUCUGUCCACCUGGCCUCCUCUCGCCUGGCCGCC	0.351
AAAUAAAAAAAAAAAGGAAAAAAAAACCUUAUAGAAGUUAGCAUUAUGCUAAAAUCCCAGAUGUUGUAGGACUGUACUUCUGUAGAGUUUAGACUGAGCAUCGAUCCCGU	0.972
CACGUGUGCGAACUGAAAUGUCAUAGCUGAAGCAGUAUAACAGAAAACCUUUGUUUCCUGUGGGGGGAGGACUGAACAUGUGGUCUUAACAGCCUUUUGUACAGAUAUCU	0.433
CUGCCAACCUUUUCCCCCCAAGGGAAAAAAUAUACGCAAGUAUAAAGCAUCUACAUCAAUGUUUAUAAAGCAAUCAUUUGUGAACGCCGUGAUGCUGUUUUGUAACACAA	0.348
GUGCGCCACGUGUGGCCUCCCUGUGACCGGCCGCUGCGUGUCGGCCCUGGGUCGCCGCUUCCACCCGGACCACUUCACAUGCACCUUCUGCCUGCGCCCGCUCACCAAGG	0.698
UCUCUCAGUAUGUGGGAAAUCCAGGCAAGUUUUAGAAUGUCCUAAAUUGAGCUAUUUUCACUUACUGUGUAACAGAGACAGAUAAUAAAUCUAUCAUUUGAUUUGAACUU	0.545
GGUCAACGUGAGGGGCUUACAUUCUGGGUUUGAUAAGAAAAGUGUUCAUUCAUGACUGCUAUGUCCUGAGAAAAGUUCCGAUUUCUUUUAACAAAUGUCAUCAUGAUUAA	0.349

Study 2
Target: RING finger protein unkempt homolog, zinc fingers 1-6, GST-SBP tag (UNK, Homo sapiens, UniProt Q9C0B0, residues 30-357)
Sequence of UniProt Q9C0B0 (30-357, looked up): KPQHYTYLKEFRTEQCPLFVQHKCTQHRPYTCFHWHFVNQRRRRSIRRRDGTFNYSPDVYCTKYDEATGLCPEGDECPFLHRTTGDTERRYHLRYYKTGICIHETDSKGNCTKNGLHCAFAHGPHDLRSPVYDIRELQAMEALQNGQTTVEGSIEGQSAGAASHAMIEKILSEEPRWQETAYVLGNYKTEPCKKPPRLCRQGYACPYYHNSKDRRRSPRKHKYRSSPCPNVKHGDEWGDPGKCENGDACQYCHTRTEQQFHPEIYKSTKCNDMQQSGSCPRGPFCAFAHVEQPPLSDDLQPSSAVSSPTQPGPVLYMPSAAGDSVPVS
Technique: RNA Bind-n-Seq
Form: RNA
Matrix: in vitro
Tested at: not given
Setting: RNA with constant flanks, human and mouse sites, ends assumed
Relative to: input RNA pool
Reading: higher = stronger binding
Constant ends, left off below: GGGAGUUCUACAGUCCGACGAUC … CAACAGAGGAUUGAGCAUCA
Strand	bound/input enrichment [ratio]
GACAGAAACAUGUCUUGACUGUUAGUUGUCCACAAAUCUUCAGUAUUUUCUCCACUUCAUUUUUAAGAAAGGAAGCAACAGAUAGAUGUUGCUCUUUCACCUGGGUGUCUGGGCUCAAGC	0.321
UGCUGUUGAAGUACAUGUAUAUUAUAAAUUAUCUUAUUUGUGUUAUACUCUUACAUGUUAUCUUUUCUAAGAAAACAAAGUCCCUAUUAUUCCUAUUGCAAAGCACACAGGAAUUAAGAA	0.194
UACACAAAAAGUUGUGUCAUAACUUACCCAGAUAUGUUUUUCUAUCAUUUGAAACCUUUUUAGCUACUGUUUGUUUUCAUUCAACUAACAAACAUAUUCCAAUAAUAAAAGCAGUAUAUA	4.4
GUGGCUUCAUUUUCUUUGAAUUGAAAUGAAAUACAGAUUUUUUUUUUGUAUGACUUUUGCUAGCUAUAACUACUUCAACUAAUAAGAAAGAACAGCUUUAAGCCAAAACCAAAGGUCAUU	0.483
AUAUUACUGCUGUGUAGAAACAUUAGUAGUGUUUUCAUUUUAGGUCCAAGUAAGAUGUUUUUAGUGAUAUACCUGCAGAAUGGCUCUGUCUUAAAACUGUGUAGAAAAACCCUAAUCUUU	2.36
UUUGGGCCCCUCAUCUUCAUUUAUUAUAUUAUCAAAACUGAGAGGGAUAGGAAAGAAAAACUUAUCCAGGAAGGAAAAUUGGAUCGAACAUUUCACCUCUCAUAUUAAGUCUGGCAAUGA	1.14
AAAACAUGGAUGCAUACACCUGAAGCUUUAUCAAAACAUUUCAUUCCCUAUAAUGCAAAGUUUCUUGGCAGUACAGAAGUGGAACAGCCAAAAGGAACAGAAGUUGUGAGAGAUGCUGUA	0.15
AUGCCAAAGGAAAAAUAUGAUCCUCCAGAUCCUCGCAGAAUUUAUACCAUCAUGUCAGCAGAGGAGGUAGCCAAUGGGAAAAAAUCUCACUGGGCAGAAUUAGAAAUCUCGGGUAGAGUG	1.1
AAGGAAGAGAAUAAAACCUCAAAUUCAACCUCUUCAGUAAUUUCUCUUUCUGUGGCACCAACAUUCAGCCCAAACCUGACUCUGGAGCCCACCUAUGUGACUACUGUUAAUUCUUCACAC	0.215
CGGCGGGCUGUGGGGCCGUUUGCCUUUUCCUUACCUGGGCUGGAUAAACUCAUGGACUUGGCAGCUCAGGCUUGAGAAAAACACAAACUCAGAAGAAAGAUGGCGUUCGUUGCAACCCAG	0.0942
GAGCUUUUCUUACCUAUUCAAGGAAUACGUGCCUUUUUCUUAAAUGCUUUCAUUUAUUGAAAAAAAAAAAAAAUGCCCCCAAAGCACUAUGCUGGUCAUGAACUGCUUCAAAAUGUGGAG	0.279

Study 3
Target: Fragile X messenger ribonucleoprotein 1, C-terminal low-complexity region (Fmr1, Mus musculus, UniProt P35922)
Technique: RNA Bind-n-Seq
Form: RNA
Matrix: in vitro
Tested at: 200 nM
Setting: whole 134-nt RNA, ends assumed
With: 150 mM LiCl
Relative to: input library
Reading: higher = stronger binding
Each molecule: 7-deaza-guanosine replaces G
Constant ends, left off below: GGGAGUUCUACAGUCCGACGAUC … UGGAAUUCUCGGGUGUCAAGG
Strand	log2 enrichment
ACCAUGCAGGUGGGCAUCUUUGGGAAGUGGGGAAAGGGGGGGAUAGGGAGGGGGGUAACACUUUGGGAACAGGUGGUCCCAGGUCGUUUC	1.6
UGUGAACUUGUAUGUGAAGAAUCUGGACGACUCCAUUGAUGACGACAAACUGAGGAAAGAGUUCUCUCCCUAUGGAGUAAUUACCAGUGC	0.881
GCAGGAAGUAAAAACAAAUGGAAAUGCUUCGGAUAGUGGCAGGGGUGGGGGUUGCUAAGGAAAGGGUGGGAUGGGAGUGGGUAAAUAGUU	1.24
CCUGUGCUACACAUCGUAUGUACCGAAUCGGGGUUUUUUUGGGGUUUGGGGAAAAAGGGGAAAGUAUUAUGUUACGCCGUUCGGAUCUGC	-1.13
UCCUCAAGUCCUGUGCUACACAUCGUAUGUACCGAAUCGGGUGGGUGGGUGGAAAGUAUUAUGUUACGCCGUUCGGAUCUGCACUUCCAG	0.68
UCCUGUGCUACACAUCGUAUGUACCGAAUCGGUUUUUUGGGGUUUUUUGGUUUUUUGGGAAAGUAUUAUGUUACGCCGUUCGGAUCUGCA	-0.154
CACAGACAACACGCACCCACACACACACAGAGGGAAGGGGUUGGGAUGGGGACAGGGUGCACAGCAGGGCGGGGUAGGACCCCAGCCCCU	0.142
AAGUCCUGUGCUACACAUCGUAUGUACCGAAUCGGUUUUUGGUUUUUGGAAAAAGGAAAGUAUUAUGUUACGCCGUUCGGAUCUGCACUU	-2.17
AAGUCCUGUGCUACACAUCGUAUGUACCGAAUCGGGAGGGAAAGGGAAAAAAAGGGAAAGUAUUAUGUUACGCCGUUCGGAUCUGCACUU	0.108
AGUCCUGUGCUACACAUCGUAUGUACCGAAUCGGGAAAAAAAGGGUUUGGGAAAGGGAAAGUAUUAUGUUACGCCGUUCGGAUCUGCACU	-2.24
CUCAAGUCCUGUGCUACACAUCGUAUGUACCGAAUCGGGAAGGAAGGAAGGGGAAAGUAUUAUGUUACGCCGUUCGGAUCUGCACUUCCA	-0.824

Study 4
Target: Hepatocyte nuclear factor 3-beta, forkhead domain (FOXA2, Homo sapiens, UniProt Q9Y261, residues 142-269)
Technique: protein-binding microarray
Form: double-stranded DNA, one strand shown
Matrix: in vitro
Tested at: not given
Setting: k-mer, scored over probes, only values ≥0.25
Reading: higher = stronger binding
Target sequence (chain): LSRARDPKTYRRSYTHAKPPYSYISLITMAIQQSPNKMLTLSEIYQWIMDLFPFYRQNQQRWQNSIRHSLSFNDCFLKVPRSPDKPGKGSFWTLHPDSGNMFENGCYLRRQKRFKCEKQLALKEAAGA
Strand	E-score
ATATGAAT	0.36
GTTATACA	0.382
GCCCCTCC	0.276
ATTTGTAG	0.254
AATCAATA	0.351
ATGGTGTA	0.302
CAACAATC	0.353
ATACTGGA	0.291
CTATCAAC	0.27
TATACCAA	0.284
GTCAACTA	0.258
AATAAAAC	0.263
GTTTACTA	0.328
ATATACTG	0.291
ATCTATTA	0.266
ATATCCGA	0.252
CACATATA	0.387
CAATATTA	0.277
ACAACAAT	0.363
ACATATTA	0.358
ACAATATC	0.265
ATTACATC	0.273
AAACATAG	0.266
GTATCTCA	0.301
ACGTGTAT	0.256

A few entries again (study 3):
Strand	log2 enrichment
UGUGAACUUGUAUGUGAAGAAUCUGGACGACUCCAUUGAUGACGACAAACUGAGGAAAGAGUUCUCUCCCUAUGGAGUAAUUACCAGUGC	0.881
GCAGGAAGUAAAAACAAAUGGAAAUGCUUCGGAUAGUGGCAGGGGUGGGGGUUGCUAAGGAAAGGGUGGGAUGGGAGUGGGUAAAUAGUU	1.24
CCUGUGCUACACAUCGUAUGUACCGAAUCGGGGUUUUUUUGGGGUUUGGGGAAAAAGGGGAAAGUAUUAUGUUACGCCGUUCGGAUCUGC	-1.13
UCCUCAAGUCCUGUGCUACACAUCGUAUGUACCGAAUCGGGUGGGUGGGUGGAAAGUAUUAUGUUACGCCGUUCGGAUCUGCACUUCCAG	0.68
UCCUGUGCUACACAUCGUAUGUACCGAAUCGGUUUUUUGGGGUUUUUUGGUUUUUUGGGAAAGUAUUAUGUUACGCCGUUCGGAUCUGCA	-0.154
CACAGACAACACGCACCCACACACACACAGAGGGAAGGGGUUGGGAUGGGGACAGGGUGCACAGCAGGGCGGGGUAGGACCCCAGCCCCU	0.142
AAGUCCUGUGCUACACAUCGUAUGUACCGAAUCGGUUUUUGGUUUUUGGAAAAAGGAAAGUAUUAUGUUACGCCGUUCGGAUCUGCACUU	-2.17
AAGUCCUGUGCUACACAUCGUAUGUACCGAAUCGGGAGGGAAAGGGAAAAAAAGGGAAAGUAUUAUGUUACGCCGUUCGGAUCUGCACUU	0.108
